Published values gathered from unrelated publications.
Each line is one published result; not all experiments were run side by side.
ESR1: Estrogen receptor (ESR1, Homo sapiens, UniProt P03372)
Sequence of UniProt P03372 (whole entry, unmodified, looked up): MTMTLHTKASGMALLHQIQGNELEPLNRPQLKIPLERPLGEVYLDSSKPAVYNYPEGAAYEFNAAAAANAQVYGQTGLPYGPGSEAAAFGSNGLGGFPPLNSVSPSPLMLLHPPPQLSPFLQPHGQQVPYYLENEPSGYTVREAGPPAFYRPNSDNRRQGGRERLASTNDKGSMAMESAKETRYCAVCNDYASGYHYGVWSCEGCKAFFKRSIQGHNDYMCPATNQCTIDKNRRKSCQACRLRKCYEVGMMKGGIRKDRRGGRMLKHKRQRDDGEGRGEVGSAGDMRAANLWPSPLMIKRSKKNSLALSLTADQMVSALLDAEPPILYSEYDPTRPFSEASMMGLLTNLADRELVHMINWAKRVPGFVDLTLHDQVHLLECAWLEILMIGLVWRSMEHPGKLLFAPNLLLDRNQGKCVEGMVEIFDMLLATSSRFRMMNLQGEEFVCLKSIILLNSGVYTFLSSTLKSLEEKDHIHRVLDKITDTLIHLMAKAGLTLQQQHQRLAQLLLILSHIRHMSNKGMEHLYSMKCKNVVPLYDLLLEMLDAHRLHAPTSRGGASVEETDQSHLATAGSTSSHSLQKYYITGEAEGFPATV

Structure (SMILES) = O=C(O)[C@H]1O[C@@H](Oc2cc3oc(-c4ccccc4)cc(=O)c3c(O)c2O)[C@H](O)[C@@H](O)[C@@H]1O; target = ESR1; test = array formation; test system = PRL-HeLa; how to read = baseline: EC50 ERβ over EC50 ERα; quantity = selectivity ratio; result = 1.04
Structure (SMILES) = CCCN1CC(Oc2ccc([C@@H]3c4[nH]c5ccccc5c4C[C@@H](C)N3CC(C)(C)F)cc2)C1; target = ESR1; test = alkaline phosphatase, antagonist; test system = Ishikawa; setting = 72 h, added: estradiol 500 pM; quantity = Emax; result = 98%
Structure (SMILES) = O=C1CC[C@H](N2Cc3c(ccc4c3OCC43CCN(C[C@@H]4CCC5(CCN(c6ccc([C@@H]7c8ccc(O)cc8CC[C@@H]7c7ccccc7)cc6)CC5)OC4)CC3)C2=O)C(=O)N1; target = ESR1; test = degrader, Western blot; test system = T47D; setting = 4 h; quantity = concentration significantly reducing ER; result = 3 nM
Structure (SMILES) = COc1cc(/C=N/NC(=O)c2cc3c(ccc4ccccc43)o2)cc(OC)c1O; target = ESR1; test = PGC-1α coactivator displacement, inhibitor, TR-FRET; setting = up to 100 µM, added: estradiol; quantity = activity; result = inactive
Structure (SMILES) = O=c1cc(-c2ccccc2)oc2cc(O[C@@H]3O[C@H](CO[C@@H]4O[C@H](CO)[C@@H](O)[C@H](O)[C@H]4O)[C@@H](O)[C@H](O)[C@H]3O)c(O)c(O)c12; target = ESR1; test = array formation; test system = PRL-HeLa; how to read = baseline: EC50 ERβ over EC50 ERα; quantity = selectivity ratio; result = 12.9
Structure (SMILES) = O=C1CC[C@H](N2Cc3cc(N4CCN(CC5CCN(c6ccc([C@@H]7c8ccc(O)cc8CC[C@@H]7c7ccccc7)cc6)CC5)CC4)ccc3C2=O)C(=O)N1; target = ESR1; test = degrader; test system = NOD/SCID mouse MCF7 xenograft, tumour lysate; setting = oral, 10 mg/kg daily x3, 18 h post last dose; how to read = baseline: vehicle; quantity = protein level reduction; result = ≥ 90%
Structure (SMILES) = O=C1CC[C@H](N2Cc3cc(N4CCN(CC5CCN(c6ccc([C@@H]7c8ccc(O)cc8CC[C@@H]7c7ccccc7)cc6)CC5)CC4)ccc3C2=O)C(=O)N1; target = Estrogen receptor (ESR1, Homo sapiens, UniProt P03372, Y537S); test = degrader, western blot; test system = MCF7 ESR1 Y537S; setting = 10 and 100 nM, 7 h; quantity = ER level reduction; result = > 80%
Structure (SMILES) = C[C@]12CC[C@@H]3c4ccc(O)cc4C[C@@H](CCCCCCCCC[S+]([O-])CCCC(F)(F)C(F)(F)F)[C@H]3[C@@H]1CC[C@@H]2O (stereo partly drawn); target = ESR1; test = antagonist, CALUX reporter; test system = U2OS; setting = 3e-07 µg/mL; quantity = antagonist response; result = 43.7%
Structure (SMILES) = O=c1cc(-c2ccccc2)oc2cc(O)ccc12; target = ESR1; test = array formation; test system = PRL-HeLa; how to read = baseline: EC50 ERβ over EC50 ERα; quantity = selectivity ratio; result = 0.839

A few entries again:
Structure (SMILES) = COc1cc(/C=N/NC(=O)c2cc3c(ccc4ccccc43)o2)cc(OC)c1O; target = ESR1; test = PGC-1α coactivator displacement, inhibitor, TR-FRET; setting = up to 100 µM, added: estradiol; quantity = activity; result = inactive
